Measurements gathered from unrelated publications.
Each numbered part is a random draw from the data of one study; scales do not carry over between parts.

Sample 1
Target: RNA binding protein fox-1 homolog 2, RRM domain, GST-SBP tag (RBFOX2, Homo sapiens, UniProt O43251-10, residues 100-194)
Technique: RNA Bind-n-Seq
Form: RNA
Sample: in vitro
Concentration: 365 nM
Notes: natural RNA segment, single round, ends assumed
Baseline: no-protein control
Reading: higher = stronger binding
Constant ends, left off below: GGGAGUUCUACAGUCCGACGAUC … UGGAAUUCUCGGGUGCCAA
Target sequence (chain): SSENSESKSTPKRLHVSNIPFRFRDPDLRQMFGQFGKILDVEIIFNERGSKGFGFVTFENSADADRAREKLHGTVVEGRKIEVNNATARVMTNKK
`AAAUCUGCACCUCUCUCUAUUUUAUUUGCCAGGGGCACGAUGUGACAUAUCUGCAGUCCCAGCACAGUGGGACAAAAAGAAUUUAGACCCCAAAAGUGUCCUCGGCAUGG` — result for “RBNS enrichment (R)”: 0.534.
For `CAUUCCUGGGUUUUGUGCAGUAUACAUUUUCCCACAAAAUGGUUGUAAAGAUUUAAGUUAUUUUAAUUUAUUGUGGAUCAGAAACCUAGAUGAAACUGGUCAGAAUCUGU`, “RBNS enrichment (R)” read 0.436.
`AGACAUUUUUCCUGUUUUAGAAAAUAUAGCCCUUGUUUGGAUUACUGCUGUCUGAGCACUAGAAAUUUCUAAUGGAAAGAGGCCUCUGAAUGGCUAAGGGAACAUCUGGA` — result for “RBNS enrichment (R)”: 0.305.
For `CACAAAGAGGCCUUGUGGGCAAACCUGGAGAACCCUCCUAAAUCCAUAGAGUUUUCAAAAUGUGAAUCUUUGGAAGCCUUGAGUUCAGAAUCUGCUGCUCUGGAAUAUUU`, “RBNS enrichment (R)” read 0.691.
Under “RBNS enrichment (R)”, `GGGCUAGGGUAUGUGGUUUCCUCAGUCCUAAACGUCUGUGUGGCCAACUCAGCAUCUGCUUCCAGAAGUUUCCCACUUGCAGAUGUUCAGUGCAGUUACAGACAUGCGUU` is recorded as 0.498.
For `GAAAACAGUGGCAAGGGCUGUUCUGUUUUCUGGUACCUGAGUGAAACUCAGAAGAAAAGCAGGCUUAGCUAAGAGAUUUUCACUAUUAACCUGUUUUUAUUAGAUCAGCG`, “RBNS enrichment (R)” read 0.479.
Under “RBNS enrichment (R)”, `AUUUUUAUAUUUUUCAAUGCACUUAAUUAUUGUUUUUAUAUAAUUAUUUGUACUAACUCAGCAUGUAACAACCAAUUUACAUAGAAAUAAAUUGAAAUAUGUUAACUACA` is recorded as 1.1.
`GGCACUUAACCACACCCUGGUUUUGUGUAGCCGCCAGCUCUCUUCUGGUUGGGCCUUUGAAAGGCUCAGCCUCCCAUUGUGCAGUGCUUGGGUUUGGAGCUUAUUUGAAU` — result for “RBNS enrichment (R)”: 0.348.
Under “RBNS enrichment (R)”, `GGCCAGGGCUGCGGGGCUGGCGCAAUCCCAGCCCCCUUCCCCGGGCCACGGGGCCUUGGGUCCCUGCCCUCCCACCCAGGUUUGGUUCCUCCCGGGGCCCCCACUGUGGA` is recorded as 0.185.
For `AGGUAGCCAGGGGGCAUUUGCUGUCCAAAAAAAUGUUAUGAGCAGAAGAGAUUUUUACAGUAACAUAAAAGCAGAAUUCUUAUGUUGAUAUUAACCUGCAAAUGGACUGU`, “RBNS enrichment (R)” read 0.493.
For `AGUCAGUUAAUAGCAUUGGGACAGUCAUUGUAAUGGUGCUGUUACCAGUCGACACCAUUGUGUUUGACCGCGUUCCUGUCUCCUCAGCCACAUACCCUCAUCUGUGCUGU`, “RBNS enrichment (R)” read 0.283.
For `UUUCAACACAGUGUGCUCUCUAGUUAUCAUGUGUAACGUGGGUUCUGUUUAGCGAAGAUAGACUAGAGGACACGUUAGAGAUGCCCUUCCCUGCUCCAUCCCUGUGGCAC`, “RBNS enrichment (R)” read 0.376.

Sample 2
Target: RING finger protein unkempt homolog, zinc fingers 1-6, SBP tag (UNK, Homo sapiens, UniProt Q9C0B0, residues 30-357)
Chain of UniProt Q9C0B0 (30-357, looked up): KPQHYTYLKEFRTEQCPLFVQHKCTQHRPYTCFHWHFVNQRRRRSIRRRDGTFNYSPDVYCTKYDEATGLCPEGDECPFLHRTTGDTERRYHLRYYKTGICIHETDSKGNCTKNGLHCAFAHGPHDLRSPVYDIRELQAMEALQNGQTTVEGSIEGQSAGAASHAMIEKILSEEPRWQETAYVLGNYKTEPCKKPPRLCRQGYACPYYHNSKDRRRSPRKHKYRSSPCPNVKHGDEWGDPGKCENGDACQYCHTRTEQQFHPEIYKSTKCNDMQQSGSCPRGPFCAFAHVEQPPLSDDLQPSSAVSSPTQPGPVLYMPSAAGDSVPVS
Technique: RNA Bind-n-Seq
Form: RNA
Sample: in vitro
Concentration: 100 nM
Notes: RNA with constant flanks, vertebrate orthologous sites, ends assumed
Baseline: input RNA pool
Reading: higher = stronger binding
Constant ends, left off below: GGGAGUUCUACAGUCCGACGAUC … CAACAGAGGAUUGAGCAUCA
For `CAGCUGACUCACUCAUUGGGAGAGCUGCACAUAUAGCUGUUCUUGAUUCAGAAAUAUUUUUAGAGAAAUUCUUUCUGGUUGCUGCCCUCAAAUAUUUCCAAUAAGAUAAAAACAUUGUUA`, the bound/input enrichment was 0.578 ratio.
`UGUGGGGUUUAGGGGUGGGAAAGGGAAGAUAUAUGGACCUUUGUGGCAUUUUUAAGUGUUUAGAGCUCCUCCCCCUCCUUUUGUUUUGUAAUUUCCCUUGAACGUAAUGCACUGACCUGA` gave a bound/input enrichment of 1.45 ratio.
For `UCCUCAACAUGUUCUAGCUUGUGAUCCUUCCAAGCUGGGUCAUAUUUUAGUGCUAGACAGUAGAAAUUUCACUUCUCUUUCCAUUGAUCAGAAAACCAGACAUUAAAAACAGGACUAUGU`, the bound/input enrichment was 1.31 ratio.
With `UAUUUUCUUAUUUUAGGUAUCAUUGCCCAAUGCCCAAGAUCUUUUAUGUUCAGCUGACUGUAGGAAACAAUGAAUUUUUUGGGGAAGGAAAGACUCGACAAGCUGCUAGACACAAUGCUG` the bound/input enrichment was 1.45 ratio.
The bound/input enrichment of `CACAUCCGGUGAUAUUUGGCCUGGCCUUUCAGCUUAUGAUAAUAGUCCUAGAUCACCCCAUAGUCCUUCACCUAUUGCUACACCACCUAGUCAGAGUUCAUCUUGCUCUGAUGCUCCCAU` is reported as 1.3 ratio.
`AUGGCUUUUGCUUCAUGAAAAAGACUUAAUAAAUAGUCCCCUCAAUUAAAAAUGCCUAAAUAGCUAUUUUAAAAAUCAAAUGUUUAAAUUUUGUAAAUCACCUGAUGUCACUACACACCU` gave a bound/input enrichment of 0.661 ratio.
For `GUCCUUUCGCUGAGUCCCCGGCCAGGGUGGCGGGGCCAAGGUUUCACCGAGGAACUGCAUUUCAAAAAAAAACUAUUUUUAAUUGUGGUACAGGAAGCGACGUUGCUGAAACAGCCUCUG`, the bound/input enrichment was 0.347 ratio.
With `CAUAAAAUAUUGGAUGCAGUGUAUAAAUUAUCCAAGGCAGUGACUUCAGCUUUAUAUAUAUUGUUAGUUUUAAAGUCAUCUACUUUUAUUUAAACUUCUAGAUUGGACUGUUUGCUAUUG` the bound/input enrichment was 0.688 ratio.
The bound/input enrichment of `AAAUGCCUUCUGUUCCAUUAAGAAGAACAAAUCUAGUCCCCCAGGUAUAAAACUCCUAAAUAGCUAUUUUUGAAAUGAAAAUGUUUAAAUUUUGUAAAUCAGCUGUUGCCACUAUACAAC` is reported as 1.01 ratio.
For `AAGUAUCCCAGUUUACUGUGUUGAGUUGGCAUUGUACAGAAAUUAACAGCCAUAUUGGUCUAGAAAUGUUAAACUUAAUUUUUUUCCAUUUGUACAGGGGUAACACACUGUAUUAAAUAU`, the bound/input enrichment was 0.526 ratio.
The bound/input enrichment of `UGCUUUUAAAUAAACGUCUGUAAAUGUAUAUUGAGAGAAUUGAAGUAUUUAUAAACAGAGUGAUUUAUUUAAGGGAAAGGUCAUUCCUCUUUCAUACGUGAUCUGUGUUAAUUCCAUUCC` is reported as 0.236 ratio.

Sample 3
Target: Prothrombin, mature alpha-thrombin (F2, Homo sapiens, UniProt P00734)
Technique: aptamer microarray, sandwich
Form: DNA with 2'F-ANA
Sample: in vitro
Concentration: 200 nM
Notes: whole 15-mer aptamer, many near background
With: Cy3 exosite-II aptamer, 400 nM
Reading: higher = stronger binding
Sequence: GGTTGGTGTGGTTGG
`2'F-ANA at 1 2 3 5 6 7 9 10 11 12 14`: “mean fluorescence intensity” 57.2 a.u.
For `2'F-ANA at 3 5 6 7 8 9 10 12`, “mean fluorescence intensity” read 74 a.u.
For `2'F-ANA at 2 4 6 7 10 11 12 13`, “mean fluorescence intensity” read 87.3 a.u.
Under “mean fluorescence intensity”, `2'F-ANA at 1 3 4 5 6 7 8 9 10 11 13 14 15` is recorded as 54 a.u.
`2'F-ANA at 4 5 9 10 13 14 15`: “mean fluorescence intensity” 52 a.u.
For `2'F-ANA at 2 3 4 5 9 10 13 14 15`, “mean fluorescence intensity” read 56.2 a.u.
`2'F-ANA at 4 5 7 8 9 12`: “mean fluorescence intensity” 159 a.u.
`2'F-ANA at 3 4 7 8 11 13 14`: “mean fluorescence intensity” 403 a.u.
`2'F-ANA at 1 4 5 8 11 14 15`: “mean fluorescence intensity” 46.1 a.u.
Under “mean fluorescence intensity”, `2'F-ANA at 6 8 10 12` is recorded as 250 a.u.
`2'F-ANA at 1 4 6 7 8 9 10 12 13 14 15`: “mean fluorescence intensity” 82.6 a.u.
`2'F-ANA at 1 2 6 7 14 15` — result for “mean fluorescence intensity”: 56.5 a.u.
`2'F-ANA at 2 4 6 8 9 14`: “mean fluorescence intensity” 92.9 a.u.
For `2'F-ANA at 3 4 5 7 8 10 12 14`, “mean fluorescence intensity” read 48.6 a.u.
For `2'F-ANA at 5 6 7 9 10 11 13 15`, “mean fluorescence intensity” read 48.1 a.u.
`2'F-ANA at 2 4 5 6 7 8 12 14 15`: “mean fluorescence intensity” 47.7 a.u.
For `2'F-ANA at 1 2 3 6 7 8 10 11 14`, “mean fluorescence intensity” read 55.2 a.u.
`2'F-ANA at 3 4 6 7 8 9 10 13 14`: “mean fluorescence intensity” 186 a.u.
`2'F-ANA at 3 5 6 7 12 13` — result for “mean fluorescence intensity”: 176 a.u.
`2'F-ANA at 2 8 9 10 12 13 15` — result for “mean fluorescence intensity”: 148 a.u.
`2'F-ANA at 2 4 7 8 10 13 14`: “mean fluorescence intensity” 70 a.u.
`2'F-ANA at 1 2 4 5 6 7 15` — result for “mean fluorescence intensity”: 55.4 a.u.
`2'F-ANA at 2 3 5 7 8 12 14` — result for “mean fluorescence intensity”: 58.7 a.u.

Sample 4
Target: Ras GTPase-activating protein-binding protein 1, RRM domain (G3BP1, Homo sapiens, UniProt Q13283)
Chain of UniProt Q13283 (whole entry, looked up): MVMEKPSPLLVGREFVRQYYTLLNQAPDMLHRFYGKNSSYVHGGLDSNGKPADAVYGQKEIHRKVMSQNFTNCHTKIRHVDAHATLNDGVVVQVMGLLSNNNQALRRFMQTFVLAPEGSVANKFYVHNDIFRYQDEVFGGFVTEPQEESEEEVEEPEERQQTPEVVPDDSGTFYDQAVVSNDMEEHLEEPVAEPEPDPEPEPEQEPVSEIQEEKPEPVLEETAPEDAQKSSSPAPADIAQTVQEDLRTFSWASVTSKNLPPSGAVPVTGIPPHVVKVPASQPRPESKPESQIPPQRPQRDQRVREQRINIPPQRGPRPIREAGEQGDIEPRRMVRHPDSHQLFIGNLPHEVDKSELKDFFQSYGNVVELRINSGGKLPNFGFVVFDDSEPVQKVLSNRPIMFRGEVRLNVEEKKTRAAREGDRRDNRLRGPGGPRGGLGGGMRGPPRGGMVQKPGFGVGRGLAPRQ
Technique: RNA Bind-n-Seq
Form: RNA
Sample: in vitro
Concentration: 1 µM
Notes: whole 134-nt RNA, ends assumed
With: 150 mM KCl
Baseline: input library
Reading: higher = stronger binding
Constant ends, left off below: GGGAGUUCUACAGUCCGACGAUC … UGGAAUUCUCGGGUGUCAAGG
With `CCUGUGCUACACAUCGUAUGUACCGAAUCAAAUUUUUAAAUUUUUUUAAAUUUUUUUAAAAAAGUAUUAUGUUACGCCGUUCGGAUCUGC` the log2 enrichment was -0.471.
With `UAACUUUAGAGGAGGAUCUGAUGGAUAUGGCAGUGGACGUGGAUUUGGGGAUGGCUAUAAUGGGUAUGGAGGAGGACCUGGACGUGGCAA` the log2 enrichment was -0.409.
`UCCUGUGCUACACAUCGUAUGUACCGAAUCGGAAAAAAGGGGAAAAAAGGAAAAAAGGGGAAAGUAUUAUGUUACGCCGUUCGGAUCUGC` has a log2 enrichment of -0.023.
`CUCAAGUCCUGUGCUACACAUCGUAUGUACCGAAUCGGCCGGGCCGGGCCGGGAAAGUAUUAUGUUACGCCGUUCGGAUCUGCACUUCCA` has a log2 enrichment of -0.732.
For `UCAAGUCCUGUGCUACACAUCGUAUGUACCGAAUCGGGAGGGAAAAAGGGUGGGAAAGUAUUAUGUUACGCCGUUCGGAUCUGCACUUCC`, the log2 enrichment was 0.537.
For `UCCUGUGCUACACAUCGUAUGUACCGAAUCGGGGAAAAAGGGAAAAAGGGGAAAAAGGGAAAGUAUUAUGUUACGCCGUUCGGAUCUGCA`, the log2 enrichment was -0.0505.
The log2 enrichment of `AAGUCCUGUGCUACACAUCGUAUGUACCGAAUCAAACCCAAACCCCCAAACCCAAAAAAGUAUUAUGUUACGCCGUUCGGAUCUGCACUU` is reported as -0.147.
With `UGGCUUCCUUCUUUCUAUUCCCCGCCUGCCUUCCAUGGUAGAGGCCAGUGACUUUGAGAUUAAUGGACUGGACUUCAUGGUAAGACCCUC` the log2 enrichment was -0.215.
The log2 enrichment of `AAAAUUUCCAGUACCUUUGUCACAAUCCUAACACAUUAUCGGGAGCAGUGUCUUCCAUAAUGUAUAAAGAACAAGGUAGUUUUUACCUAC` is reported as -0.115.
The log2 enrichment of `UUACCGACACCGUAGAACAGAGCAAGAGGAGGAUGAAGAGCUAUUAACAGAAAGCUCCAAAGCAACCAAUGUUUGCACUCGAUUUGAAGA` is reported as -0.053.
With `GUCCUGUGCUACACAUCGUAUGUACCGAAUCGGUUUUUUGGUUUUUUGGGUUUUUUGGGAAAGUAUUAUGUUACGCCGUUCGGAUCUGCA` the log2 enrichment was -0.322.
The log2 enrichment of `CAAGUCCUGUGCUACACAUCGUAUGUACCGAAUCGGGCCCGGGCCCGGGCCCGGGAAAGUAUUAUGUUACGCCGUUCGGAUCUGCACUUC` is reported as -0.061.
`UGGCCCUGGUGGCAUGCGAGGAGGAAGAGGUGGCCUCAUGGAUCGUGGUGGUCCCGGUGGAAUGUUCAGAGGUGGCCGUGGUGGAGACAG` has a log2 enrichment of 0.845.
`ACCAUGCAGGUGGGCAUCUUGGGGAAGUGGGGCAAGGGGGGGAUAGGGAGGGGGGUAACACUUUGGGAACAGGUGGUCCCAGGUCGUUUC` gave a log2 enrichment of -0.489.

Some of these lines once more (sample 3):
`2'F-ANA at 3 5 6 7 12 13` — result for “mean fluorescence intensity”: 176 a.u.
`2'F-ANA at 2 8 9 10 12 13 15` — result for “mean fluorescence intensity”: 148 a.u.
`2'F-ANA at 2 4 7 8 10 13 14`: “mean fluorescence intensity” 70 a.u.
`2'F-ANA at 1 2 4 5 6 7 15` — result for “mean fluorescence intensity”: 55.4 a.u.
`2'F-ANA at 2 3 5 7 8 12 14` — result for “mean fluorescence intensity”: 58.7 a.u.
